Published values gathered from unrelated publications.
± marks the error that the study gave.
Organism: Salmonella typhimurium

Structure (SMILES) | assay | system | conditions | how to read | measurement | value
Cc1cc(C(=O)NC(C)(C)COc2cccc3c2C(N)=NS(=O)(=O)N3)cc(C)n1 | Ames test, initial | TA1535 | 1500 µg/plate, added: rat liver S9 | relative to: solvent control | revertant ratio | 1.2
CC(C)N(C)N=O | mutagenicity, Ames plate incorporation | TA1537 | 150 µg/plate, 3 d, without S9, methanol |  | revertant colonies per plate | 12.7 ± 2
Fc1ccc(C2=CCNCC2)cc1 | SOS/umu test | TA1535/pSK1002 | 0.125 mg/mL, 4 h, without S9, full range |  | survival | 96.5%
CN(CC(C)(C)C)N=O | mutagenicity, Ames plate incorporation | TA100 | 50 µg/plate, without S9, methanol |  | revertant colonies per plate | 168 ± 8
O=[N+]([O-])c1ccc(N2CCC(NCCC(O)c3ccc(F)c4ccccc34)CC2)c(C(F)(F)F)c1 (stereo not drawn) | SOS response, SOS/umu test | TA1535/pSK1002, TGA medium | 0.000488 mg/mL, 4 h, added: 10% rat liver S9 | relative to: untreated | induction factor | 1.2
CC(=O)N1CCC(C(=O)N2CCN3C(=O)c4cc(-c5ccccc5)ccc4NC(=O)C3C2)CC1 (stereo not drawn) |  | TA98 | 158 µg/plate, added: rat liver S9 |  | revertants per plate | 39.5
O=[N+]([O-])c1ccc(N2CCN(CCC(O)c3ccc(F)cc3)CC2)c(C(F)(F)F)c1 (stereo not drawn) | genotoxicity, SOS/umu test | TA1535/pSK1002 | 0.25 mg/mL, 4 h, without S9, lower range |  | induction factor | 0.1
COc1cccc(-c2n[nH]c(SCc3ccccn3)n2)c1OC | Ames test, preincubation | TA1535 | 2.0 mg/plate, without S9 |  | revertant colonies per plate | 5
COCCN(CCOC)N=O | mutagenicity, Ames plate incorporation | TA1537 | 150 µg/plate, 3 d, without S9, methanol |  | revertant colonies per plate | 16 ± 3

Some of these lines once more:
Structure (SMILES) | assay | system | conditions | how to read | measurement | value
COc1cccc(-c2n[nH]c(SCc3ccccn3)n2)c1OC | Ames test, preincubation | TA1535 | 2.0 mg/plate, without S9 |  | revertant colonies per plate | 5
